# Published values gathered from unrelated publications.
# Lines come from different studies, so protocols differ. Values joined by “and” are separate records of one study, mostly repeats; a detail may differ. Numbers after ± are the reported error.
# UniProt Q9UKP6, sequence (whole entry, unmodified, looked up): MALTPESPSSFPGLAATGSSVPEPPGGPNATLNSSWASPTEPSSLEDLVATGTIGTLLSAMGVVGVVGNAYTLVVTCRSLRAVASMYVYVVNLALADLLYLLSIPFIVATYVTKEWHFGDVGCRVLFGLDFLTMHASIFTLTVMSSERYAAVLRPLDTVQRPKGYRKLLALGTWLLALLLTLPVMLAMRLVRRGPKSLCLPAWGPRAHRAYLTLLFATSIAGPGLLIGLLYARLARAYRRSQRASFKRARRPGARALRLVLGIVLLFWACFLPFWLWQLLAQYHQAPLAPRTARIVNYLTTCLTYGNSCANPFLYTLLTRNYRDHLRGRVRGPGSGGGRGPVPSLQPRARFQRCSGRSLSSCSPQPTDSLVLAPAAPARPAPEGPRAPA
# UniProt O60894, sequence (whole entry, looked up): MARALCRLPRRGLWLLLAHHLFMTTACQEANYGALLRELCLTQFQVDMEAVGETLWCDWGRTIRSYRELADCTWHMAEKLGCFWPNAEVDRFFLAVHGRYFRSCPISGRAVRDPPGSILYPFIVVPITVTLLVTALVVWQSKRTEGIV
# UniProt O09047, sequence (whole entry, looked up): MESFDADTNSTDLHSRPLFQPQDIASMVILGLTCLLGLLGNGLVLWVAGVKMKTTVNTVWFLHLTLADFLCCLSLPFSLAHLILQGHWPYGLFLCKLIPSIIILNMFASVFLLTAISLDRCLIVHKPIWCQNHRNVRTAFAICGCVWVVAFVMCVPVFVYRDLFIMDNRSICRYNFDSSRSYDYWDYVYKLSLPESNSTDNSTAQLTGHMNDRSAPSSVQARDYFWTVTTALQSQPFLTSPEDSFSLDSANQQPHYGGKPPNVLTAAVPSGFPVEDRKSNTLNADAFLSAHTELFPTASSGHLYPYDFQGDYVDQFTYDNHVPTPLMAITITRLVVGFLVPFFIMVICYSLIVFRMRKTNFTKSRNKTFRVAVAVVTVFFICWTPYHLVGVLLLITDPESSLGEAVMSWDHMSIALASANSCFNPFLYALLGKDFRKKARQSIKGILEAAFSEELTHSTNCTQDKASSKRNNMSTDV
# UniProt O15146, sequence (whole entry, looked up): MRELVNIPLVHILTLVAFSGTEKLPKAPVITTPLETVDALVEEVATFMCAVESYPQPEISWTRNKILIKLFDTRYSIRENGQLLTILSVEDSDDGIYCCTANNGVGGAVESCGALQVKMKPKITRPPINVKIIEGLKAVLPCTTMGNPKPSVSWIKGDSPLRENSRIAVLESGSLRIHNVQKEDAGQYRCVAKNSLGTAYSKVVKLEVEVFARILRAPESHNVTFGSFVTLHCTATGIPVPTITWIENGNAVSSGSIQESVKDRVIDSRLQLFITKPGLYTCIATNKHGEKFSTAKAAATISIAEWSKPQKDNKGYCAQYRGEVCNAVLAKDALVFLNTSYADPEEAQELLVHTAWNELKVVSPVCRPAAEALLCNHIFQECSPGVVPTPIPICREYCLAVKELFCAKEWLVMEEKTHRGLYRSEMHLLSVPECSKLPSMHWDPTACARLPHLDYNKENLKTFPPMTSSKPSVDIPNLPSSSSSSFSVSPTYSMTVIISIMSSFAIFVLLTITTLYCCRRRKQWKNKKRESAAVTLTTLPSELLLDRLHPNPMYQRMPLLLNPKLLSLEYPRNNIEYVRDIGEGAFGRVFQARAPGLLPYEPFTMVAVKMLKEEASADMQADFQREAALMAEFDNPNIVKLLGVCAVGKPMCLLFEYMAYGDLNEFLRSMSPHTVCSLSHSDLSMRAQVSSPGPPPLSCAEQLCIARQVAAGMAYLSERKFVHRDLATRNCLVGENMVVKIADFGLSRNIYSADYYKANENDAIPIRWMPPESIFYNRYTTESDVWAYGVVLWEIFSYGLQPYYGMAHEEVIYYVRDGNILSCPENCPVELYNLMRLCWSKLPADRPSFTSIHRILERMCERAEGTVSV
# UniProt Q16602, sequence (whole entry, looked up): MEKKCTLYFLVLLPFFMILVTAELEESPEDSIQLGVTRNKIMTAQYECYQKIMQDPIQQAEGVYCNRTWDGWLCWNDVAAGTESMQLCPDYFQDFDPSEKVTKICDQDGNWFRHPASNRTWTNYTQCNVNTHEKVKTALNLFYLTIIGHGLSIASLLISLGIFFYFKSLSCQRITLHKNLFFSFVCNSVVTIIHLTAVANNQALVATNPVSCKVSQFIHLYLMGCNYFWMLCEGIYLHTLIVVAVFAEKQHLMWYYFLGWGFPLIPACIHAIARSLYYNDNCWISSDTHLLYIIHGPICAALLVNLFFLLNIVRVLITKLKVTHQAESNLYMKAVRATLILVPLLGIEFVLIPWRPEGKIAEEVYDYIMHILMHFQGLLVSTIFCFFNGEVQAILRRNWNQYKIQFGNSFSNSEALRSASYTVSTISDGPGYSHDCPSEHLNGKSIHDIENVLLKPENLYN
# UniProt P41143, sequence (whole entry, unmodified, looked up): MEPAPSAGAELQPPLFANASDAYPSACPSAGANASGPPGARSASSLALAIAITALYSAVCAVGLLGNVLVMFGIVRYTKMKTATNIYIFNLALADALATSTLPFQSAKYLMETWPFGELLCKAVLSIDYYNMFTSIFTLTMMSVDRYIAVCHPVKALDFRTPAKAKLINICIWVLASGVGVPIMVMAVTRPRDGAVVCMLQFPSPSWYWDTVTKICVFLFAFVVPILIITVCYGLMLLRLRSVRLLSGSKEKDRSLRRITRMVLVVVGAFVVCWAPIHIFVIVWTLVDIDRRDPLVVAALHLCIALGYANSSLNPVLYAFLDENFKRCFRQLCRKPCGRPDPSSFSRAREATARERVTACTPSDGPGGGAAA
# UniProt Q01959, sequence (whole entry, looked up): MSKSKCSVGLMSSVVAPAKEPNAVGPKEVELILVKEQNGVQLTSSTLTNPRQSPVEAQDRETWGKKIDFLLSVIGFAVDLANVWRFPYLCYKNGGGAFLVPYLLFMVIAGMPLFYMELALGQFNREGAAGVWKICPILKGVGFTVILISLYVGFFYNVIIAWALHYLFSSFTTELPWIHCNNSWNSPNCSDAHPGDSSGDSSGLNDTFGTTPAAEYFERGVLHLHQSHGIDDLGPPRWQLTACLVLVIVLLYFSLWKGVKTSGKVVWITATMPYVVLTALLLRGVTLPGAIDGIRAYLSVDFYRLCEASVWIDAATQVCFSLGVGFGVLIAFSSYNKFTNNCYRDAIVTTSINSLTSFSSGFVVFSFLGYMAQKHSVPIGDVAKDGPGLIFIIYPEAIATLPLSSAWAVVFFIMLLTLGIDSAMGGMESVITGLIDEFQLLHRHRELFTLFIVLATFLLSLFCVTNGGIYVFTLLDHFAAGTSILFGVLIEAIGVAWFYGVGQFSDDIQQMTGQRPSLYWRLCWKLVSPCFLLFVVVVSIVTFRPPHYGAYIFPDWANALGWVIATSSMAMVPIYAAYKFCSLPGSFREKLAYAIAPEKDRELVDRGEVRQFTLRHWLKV
# UniProt P11229, sequence (whole entry, looked up): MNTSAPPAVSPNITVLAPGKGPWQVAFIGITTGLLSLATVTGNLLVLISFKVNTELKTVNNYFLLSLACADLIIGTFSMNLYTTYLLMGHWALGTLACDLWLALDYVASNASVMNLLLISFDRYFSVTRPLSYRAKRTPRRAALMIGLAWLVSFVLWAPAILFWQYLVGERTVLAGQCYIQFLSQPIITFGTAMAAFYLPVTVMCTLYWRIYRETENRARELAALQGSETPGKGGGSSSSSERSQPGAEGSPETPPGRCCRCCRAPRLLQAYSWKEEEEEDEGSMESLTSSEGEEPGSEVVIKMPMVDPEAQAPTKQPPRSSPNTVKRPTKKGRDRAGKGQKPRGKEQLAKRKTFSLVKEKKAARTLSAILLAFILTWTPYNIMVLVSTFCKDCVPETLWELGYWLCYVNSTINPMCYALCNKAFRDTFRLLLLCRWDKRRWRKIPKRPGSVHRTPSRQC
# UniProt P20309, sequence (whole entry, looked up): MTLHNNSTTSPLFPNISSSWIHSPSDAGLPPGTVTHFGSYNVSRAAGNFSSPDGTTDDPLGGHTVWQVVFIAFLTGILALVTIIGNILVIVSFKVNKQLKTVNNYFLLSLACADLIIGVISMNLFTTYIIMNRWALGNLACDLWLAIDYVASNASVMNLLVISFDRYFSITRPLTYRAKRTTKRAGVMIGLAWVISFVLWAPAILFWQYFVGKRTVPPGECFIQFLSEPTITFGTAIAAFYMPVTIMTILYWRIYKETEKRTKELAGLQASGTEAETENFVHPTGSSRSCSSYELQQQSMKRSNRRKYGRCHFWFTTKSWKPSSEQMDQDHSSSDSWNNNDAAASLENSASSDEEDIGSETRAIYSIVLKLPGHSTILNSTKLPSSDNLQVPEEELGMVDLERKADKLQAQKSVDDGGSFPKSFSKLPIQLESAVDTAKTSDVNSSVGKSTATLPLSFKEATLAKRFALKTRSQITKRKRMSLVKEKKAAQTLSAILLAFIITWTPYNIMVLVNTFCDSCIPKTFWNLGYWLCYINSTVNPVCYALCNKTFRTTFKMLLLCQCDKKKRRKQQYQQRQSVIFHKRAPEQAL
# UniProt P07550, sequence (whole entry, looked up): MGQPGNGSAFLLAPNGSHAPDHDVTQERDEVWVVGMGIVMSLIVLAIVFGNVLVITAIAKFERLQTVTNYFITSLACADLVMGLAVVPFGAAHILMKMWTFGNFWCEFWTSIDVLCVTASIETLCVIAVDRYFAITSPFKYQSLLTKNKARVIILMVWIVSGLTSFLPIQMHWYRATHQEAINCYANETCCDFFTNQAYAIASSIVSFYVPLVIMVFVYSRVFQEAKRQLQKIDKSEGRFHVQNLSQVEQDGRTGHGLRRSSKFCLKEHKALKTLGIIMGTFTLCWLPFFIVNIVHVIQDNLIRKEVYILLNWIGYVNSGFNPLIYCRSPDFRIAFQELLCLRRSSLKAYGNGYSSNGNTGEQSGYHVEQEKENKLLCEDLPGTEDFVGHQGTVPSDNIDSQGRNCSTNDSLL
Compound,tested on,assay,system,setting,scale,measurement,result
COc1ccccc1-c1n[nH]c2nc(NC3CCN(C(=O)Cc4ccc(F)cc4F)CC3)ncc12,,"bead binding, competition bead pull-down, refers to: LINJ.35.3390",Leishmania donovani axenic amastigote extract,10 µM,reference: vehicle,relative abundance,0.92
C[C@@H](Cc1ccsc1)NC(=O)NC[C@H](Cc1ccc(O)cc1)N(C)C,"CHRM3 (Homo sapiens, UniProt P20309)",,,,,Ki,3.9 ± 1.6 µM
Cc1cccc(/N=N/c2cccc([B-](F)(F)F)c2)c1,"Chymotrypsinogen A (Bos taurus, UniProt P00766)","enzyme activity, competitive inhibitor",buffer with 2 vol% DMSO,"pH 7.81, 25 °C, thermally adapted trans state, added: Suc-AAPF-AMC",,Ki,162 µM
Cc1cc(C(c2ccc(Cl)cc2)c2ccc(Cl)cc2)sc1C(=O)N[C@@H](CCCNC(=N)N)C(=O)O,"C3a anaphylatoxin chemotactic receptor (C3ar1, Mus musculus, UniProt O09047)","cAMP response, agonist, GloSensor cAMP",,Gi signalling,,EC50,0.00178 µM
CC(C)(C)C(=O)OCOP(=O)(OCOC(=O)C(C)(C)C)C1CCCN(O)C1=O (stereo not shown),MDA-MB-468,,,,,CC50,49.5 µM
Cc1ccc(OCCN(C)C)cc1C(=O)N[C@H](C)c1cc(-c2ccc(C(F)(F)F)s2)nc2ccccc12,Vero E6,,,3.906 µM,,viability,118% and 107%
COc1cc2c(cc1O)C(CCc1ccc(Cl)cc1)N(C)CC2 (stereo not shown),"SLC6A3 (Homo sapiens, UniProt Q01959)","cell-free assay, radioligand",,,,Ki,4.5 µM
CC(C)[C@H](NC(=O)[C@@H]1CSSC(C)(C)[C@H](NC(=O)[C@@H](N)CC(=O)O)C(=O)N[C@@H](Cc2ccccc2)C(=O)N[C@@H](Cc2c[nH]c3ccccc23)C(=O)N[C@@H](CCCCN)C(=O)N[C@@H](Cc2ccc(O)cc2)C(=O)N1)C(=O)O,"UTS2R (Homo sapiens, UniProt Q9UKP6, V159A)","IP1 accumulation, agonist, HTRF",HEK293T cells,"1 h, 37 °C",,EC50,0.000398 µM
CN(C)[C@H](CNC(=O)/C=C/c1cccc2ccccc12)Cc1ccc(O)cc1,"CHRM1 (Homo sapiens, UniProt P11229)",cell-free assay,,,,Ki,11 µM
CSCC[C@H](NC(=O)[C@H](CCC(N)=O)NC(=O)[C@H](CCCCN)NC(=O)[C@H](CCCNC(=N)N)NC(=O)[C@H](Cc1ccc(O)cc1)NC(=O)[C@H](CCCNC(=N)N)NC(=O)[C@H](CO)NC(=O)[C@H](Cc1ccc(O)cc1)NC(=O)[C@H](CO)NC(=O)[C@H](CC(=O)O)NC(=O)[C@@H](NC(=O)[C@@H](N)Cc1ccccc1)[C@@H](C)O)C(=O)N[C@@H](C)C(=O)N[C@H](C(=O)N[C@@H](CCCCN)C(=O)N[C@@H](CCCCN)C(=O)N[C@@H](Cc1ccc(O)cc1)C(=O)N[C@@H](CC(C)C)C(=O)N[C@@H](C)C(=O)N[C@@H](C)C(=O)N[C@H](C(=O)N[C@@H](CC(C)C)C(=O)NCC(=O)N[C@@H](CCCCN)C(=O)N[C@@H](CCCNC(=N)N)C(=O)N[C@@H](Cc1ccc(O)cc1)C(=O)N[C@@H](CCCCN)C(=O)N[C@@H](CCC(N)=O)C(=O)N[C@@H](CCCCn1cc(C[C@H](NC(=O)CNC(=O)[C@H](CO)NC(=O)[C@H](CCCNC(=N)N)NC(=O)[C@H](CO)NC(=O)[C@H](CC(C)C)NC(=O)[C@H](CC(C)C)NC(=O)CNC(=O)[C@H](C)NC(=O)[C@H](CC(C)C)NC(=O)[C@H](CCCNC(=N)N)NC(=O)[C@H](Cc2c[nH]cn2)NC(=O)[C@@H](NC(=O)[C@@H](N)C(C)C)[C@@H](C)O)C(=O)N[C@H](C(=O)N[C@H](C(=O)N[C@@H](CCCCN)C(=O)N[C@@H](CC(N)=O)C(=O)N[C@@H](CC(N)=O)C(=O)N[C@@H](Cc2ccccc2)C(=O)N[C@H](C(=O)N2CCC[C@H]2C(=O)N[C@H](C(=O)N[C@@H](CC(N)=O)C(=O)N[C@H](C(=O)NCC(=O)N[C@@H](CO)C(=O)N[C@@H](CCCCN)C(=O)N[C@@H](C)C(=O)N[C@@H](Cc2ccccc2)C(N)=O)C(C)C)[C@@H](C)O)C(C)C)C(C)C)C(C)C)nn1)C(=O)N[C@H](C(=O)N[C@@H](CCCCN)C(=O)N[C@@H](CC(N)=O)C(=O)N[C@@H](CCCCN)C(N)=O)C(C)C)C(C)C)C(C)C,"Calcitonin-gene-related peptide receptor, CALCRL/RAMP1 (Homo sapiens, UniProt O60894+Q16602)","cAMP accumulation, antagonist, LANCE cAMP","COS-7 cells, transfected",15 min,,Kb,0.001 µM
CC[C@H](C)[C@H](NC(=O)[C@H](CCCCNC(=O)CN(CCNC(=O)CN(CCNC(=O)CN(CCNC(=O)CN(CCNC(=O)[C@H](CCCNC(=N)N)NC(C)=O)C(=O)Cn1ccc(N)nc1=O)C(=O)Cn1cnc2c(=O)[nH]c(N)nc21)C(=O)Cn1cnc2c(=O)[nH]c(N)nc21)C(=O)Cn1ccc(N)nc1=O)NC(=O)[C@H](C)NC(=O)[C@H](CCCNC(=N)N)NC(=O)[C@H](CCCCN)NC(=O)[C@H](CCC(N)=O)NC(=O)[C@H](CCC(N)=O)NC(=O)[C@H](CC(N)=O)NC(=O)[C@@H](NC(=O)[C@H](CC(C)C)NC(=O)[C@H](CC(N)=O)NC(=O)[C@@H]1CCCN1C(=O)[C@H](CC(=O)O)NC(=O)[C@H](CC(C)C)NC(=O)[C@H](C)NC(=O)[C@H](C)NC(=O)[C@H](CCCC(=O)NCCN(CC(=O)NCCN(CC(=O)NCCN(CC(=O)NCCN(CC(=O)N[C@@H](CCCNC(=N)N)C(N)=O)C(=O)Cn1cnc2c(=O)[nH]c(N)nc21)C(=O)Cn1ccc(N)nc1=O)C(=O)Cn1ccc(N)nc1=O)C(=O)Cn1cnc2c(=O)[nH]c(N)nc21)NC(=O)[C@H](Cc1c[nH]c2ccccc12)NC(=O)[C@H](Cc1ccc(O)cc1)NC(=O)[C@H](CCCNC(=N)N)NC(=O)[C@H](CC(N)=O)NC(=O)[C@H](CCCNC(=N)N)NC(=O)[C@H](CCSC)NC(=O)[C@H](CCC(=O)O)NC(=O)[C@H](CCCCN)NC(=O)[C@H](CO)NC(=O)[C@H](Cc1ccccc1)NC(C)=O)[C@@H](C)O)C(=O)N[C@@H](CCCNC(=N)N)C(=O)N[C@@H](CO)C(=O)N[C@H](C(=O)N[C@@H](Cc1ccc(O)cc1)C(=O)N[C@@H](CCC(=O)O)C(=O)N[C@@H](CCC(=O)O)C(=O)NCC(=O)N[C@@H](CCC(=O)O)C(N)=O)[C@@H](C)CC,"ERBB2 (Homo sapiens, UniProt P04626)","binding, SPR",,,,Kd,0.0047 µM
Cc1cc(O)cc(C)c1C[C@H](N)C(=O)N[C@H](CCCNC(=N)N)C(=O)N[C@@H](Cc1ccccc1)C(=O)N(C)CC(=O)N(C)Cc1cc(C(F)(F)F)cc(C(F)(F)F)c1,"OPRD1 (Homo sapiens, UniProt P41143, N131S)",,,,,Ki,0.00745 ± 0.00056 µM
O=C(N[C@@H]1c2ccccc2C[C@H]1N1CCCC1)c1ccc(-c2ccnc3[nH]ccc23)nc1,"MAP3K19 (Homo sapiens, UniProt Q56UN5)","binding, competition with immobilised ligand",,,,Kd,0.185 µM
CS(C)(=O)=Nc1ccc(-c2ccc(-c3nc4cc(O[C@@H]5CO[C@H]6[C@@H]5OC[C@H]6O)[nH]c4cc3F)cc2)cc1,"MUSK (Homo sapiens, UniProt O15146)","enzyme activity, inhibitor",,10 µM,,inhibition,-7%
O=C1NC2(CC2)COc2ncc(F)cc2[C@H]2COCCN2c2ccn3ncc1c3n2,,,"Sprague-Dawley rat, male, testes","oral, 2.5 mg/kg/day, 4 weeks dosing, end of recovery",,organ-to-brain weight ratio,153 ± 14.6%
O=C(O)CCn1c(=O)oc2cc(Cl)c(Cl)cc21,"ADRB2 (Homo sapiens, UniProt P07550)",agonist,,,,EC50,> 100 µM

# Excerpt of the above:
Compound,tested on,assay,system,setting,scale,measurement,result
CS(C)(=O)=Nc1ccc(-c2ccc(-c3nc4cc(O[C@@H]5CO[C@H]6[C@@H]5OC[C@H]6O)[nH]c4cc3F)cc2)cc1,"MUSK (Homo sapiens, UniProt O15146)","enzyme activity, inhibitor",,10 µM,,inhibition,-7%
